Results collected from several papers.
Lines come from different studies, so protocols differ. Numbers after ± are the reported error.
Target: Tyrosine-protein kinase HCK (HCK, Homo sapiens, UniProt P08631)
Chain of UniProt P08631 (whole entry, looked up): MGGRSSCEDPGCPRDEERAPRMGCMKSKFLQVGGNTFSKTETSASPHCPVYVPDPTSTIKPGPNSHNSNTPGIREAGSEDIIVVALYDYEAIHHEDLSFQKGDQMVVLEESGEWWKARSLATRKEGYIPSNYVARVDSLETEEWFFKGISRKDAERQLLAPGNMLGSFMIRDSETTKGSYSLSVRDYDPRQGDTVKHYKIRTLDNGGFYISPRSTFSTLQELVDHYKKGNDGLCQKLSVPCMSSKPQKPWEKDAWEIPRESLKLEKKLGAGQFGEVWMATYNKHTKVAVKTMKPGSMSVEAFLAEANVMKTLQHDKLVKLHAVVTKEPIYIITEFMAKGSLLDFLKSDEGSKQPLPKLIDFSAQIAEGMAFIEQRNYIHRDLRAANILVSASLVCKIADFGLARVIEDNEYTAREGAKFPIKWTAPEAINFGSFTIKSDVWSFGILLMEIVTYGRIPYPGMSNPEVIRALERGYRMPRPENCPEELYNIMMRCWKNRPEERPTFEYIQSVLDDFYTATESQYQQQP

| Structure (SMILES) | test | test system | setting | how to read | measurement | result |
| --- | --- | --- | --- | --- | --- | --- |
| C=CC(=O)N1CCC([C@@H]2CCNc3c(C(N)=O)c(-c4ccc(Oc5ccccc5)cc4)nn32)CC1 | kinase activity, inhibitor, HotSpot radiometric |  | 100 nM, added: ATP 10 µM |  | remaining activity | 83.3% |
| C=CC(=O)N1CCC[C@@H](n2nc(-c3ccc(Oc4ccccc4)cc3)c3c(N)ncnc32)C1 |  |  | 1 µM |  | remaining activity | 105% |
| COc1ccc(F)cc1C(=O)NCc1ccc(-c2nn([C@@H](C)C(F)(F)F)c(N)c2C(N)=O)cc1 | target engagement, competitive chemoproteomics | human PBMCs | 1 µM |  | inhibition | -8.5% |
| Cc1nc(Nc2ncc(C(=O)Nc3c(C)cccc3Cl)s2)cc(N2CC[C@H](O)C2)n1 |  |  | 0.001 µM |  | inhibition | 89% |
| CNc1ncc2c(/C=C/C(=O)N3CCC(OC)CC3)nn(Cc3cccc(C(F)(F)F)c3)c2n1 | kinase activity, inhibitor |  | 1 µM | reference: untreated control | remaining activity | 84% |
| CC#CC(=O)N1CCC[C@H]1c1nc(-c2ccc(C(=O)Nc3ccccn3)cc2)c2c(N)nccn12 | kinase activity, inhibitor, HotSpot radiometric |  | 100 nM, added: ATP 10 µM |  | remaining activity | 102 ± 1.5% |
| C=CC(=O)N1CCC(COCC(=O)N2CCN(c3nc(-c4cnc(N)nc4C(F)F)nc(N4CCOC[C@@H]4C)n3)CC2)CC1 | KINOMEscan |  | 1 µM |  | remaining binding | 100% |
| [2H]c1cc(C)c(NC(=O)c2cnc(Nc3cc(N4CCCCC4)nc(C)n3)s2)c(Cl)c1 |  |  | 0.0001 µM |  | inhibition | > 50% |
| Cc1cnc(NC2CCOCC2)nc1-n1cnc(C(=O)NC(CN)c2cc(F)cc(Cl)c2)c1 (centres unmarked) | enzyme activity, radiometric |  | 1 µM |  | remaining activity | 103% |
| Cc1cc(Nc2cc(N3CCN(C)CC3)nc(Sc3ccc(NC(=O)C4CC4)cc3)n2)[nH]n1 | kinase activity, KinaseProfiler |  | 0.03 µM, species human | reference: control | remaining activity | 105% |
| CCN(CC)c1ccc(C2=NNC(=O)CC2C)cc1[N+](=O)[O-] (centres unmarked) | kinase activity |  | 10 µM |  | remaining activity | 87% |
